Experimental data of several laboratories.
Each numbered part is a random draw from the data of one study; scales do not carry over between parts. Changes are numbered by the printed parent chain.

Block 1
Target: RNA binding protein fox-1 homolog 2, RRM domain, GST-SBP tag (RBFOX2, Homo sapiens, UniProt O43251-10, residues 100-194)
Method: RNA Bind-n-Seq
Form: RNA
Medium: in vitro
Tested at: 365 nM
Setting: natural RNA segment, single round, ends assumed
Reference: no-protein control
Direction: higher = stronger binding
All sequences stand within: GGGAGUUCUACAGUCCGACGAUC … UGGAAUUCUCGGGUGCCAA
Residues (chain): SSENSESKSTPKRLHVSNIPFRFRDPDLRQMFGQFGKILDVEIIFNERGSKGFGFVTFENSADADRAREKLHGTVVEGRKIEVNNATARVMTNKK
Strand | RBNS enrichment (R)
AGGCUCGAUUCUGCCCUCUCUUUUUAACCAUCUCCCUUGUAGAUGAUCCGGGCCACUAGAGAUUAGCUUCCAUUGCCUGAGGCAGAGGGAGGACACAGGUCUUCCUGGAG | 0.246
AUGUCAUGUACUACACACAUGUCAUAUAGUACAUACAUGUCAUGUCCAUUUAACGACUGGUCACCUGCUGGGGACCCAGGCAUCUGCCUUGUUUUCCUUUUUCUUUCAGU | 0.374
UCUGUCCCCGCCAGCAACUAUGUGUAAGGUGGGCCACUCUGUCCACAUUGCCUUUGUUAUCUUUUUUUCGGAUUGAGCUCAUAACAGCCUGUGGCCCCUCACAUUCUCCA | 0.256
CCUAGCAUUCAUGAUUUUUUUUUCAUACAAUGAAUUAAAAUUGCUAAAAUCAUGGACUGGCUUUCUGGUUGGAUUUCAGGUAAGAUGUGUUUAAGGCCAGAGCUUUUCUC | 0.719
AUGACUCUUUCUGAAGGAAGAGAAGACAUUUGCCUUUUGUUAAAAGAUGGUAAACCAGAUCUGUCUCCAAGACCUUGGCCUCUCCUUGGAGGACCUUUAGGUCAAACUCC | 0.201
UGGAAAUACAAGCCAUAAAAUUCAAAAGGUGUCAAAAGACCUUGGCUUGUUUGGGGGUUUGUUCCCAUCCAUGAGUAGAGUUGACAAGAAGAAUUUAAACGGGAGUCUGA | 0.463
CUCACUUAGUAGUCUGUGGCCCUCUUUGGCACAUUAACCUCCCUCCUUGAUCCUCAGGCUGCACCUCUGGCAAAUGGGAGAAUGCGGCUCCUUUUGACUUCAAGGGAUCU | 0.452
GGGCCAAGCUAUAGAGGCAUGAUCAAUGUCUCCACCUCAUCAGACAUGGACCAUAACUCUGCUAUACCAGGCAGCCAGGUAUCUAGCAAUGUAGGGGACGUCAUGUCGUU | 0.253
CCCCCACUCUGCUGUACUGAUAGGAUUUAGUUGUGUUUUAGGACAUUGCAAAUCUUCUAGAAGUUCUCCCCCAAAUCAGGUCAAUGUGUGCCCUCCUGAGCUCCCACCCA | 0.475
UUGGUAUGUGGCCAUAUUUAUAGAAUGCUGAACUCAAUGUGCAAGUUGUACUGUAUGCAGUUUUGUAAAUAAGUGAAAAUAAUUUGUUGUACUUUUUAUUCAAUUCUGUA | 1.12
GUGGAACUGAAGUUUGAUUUAUUUUUGUACUACACGGCAUGGGUUUGUUGACACUUUAAUUUUGCUAUAAAUGUGUGGAAUCACAAGUUGCUGUGAUACUUCAUUUUUAA | 10.4
CCAGUGAUUUCUCCUGUUUCUUGGUGGGGGUGGGGGGGAAGGUACGUAUUCUGCAAUAUGGCUAAACCCUUUCCUGAUUGAGAGUUAAAGCAAUAGGAGUCAAGUUACUG | 0.414

Block 2
Target: Ras GTPase-activating protein-binding protein 1, full length (G3BP1, Homo sapiens, UniProt Q13283)
Chain of UniProt Q13283 (whole entry, looked up): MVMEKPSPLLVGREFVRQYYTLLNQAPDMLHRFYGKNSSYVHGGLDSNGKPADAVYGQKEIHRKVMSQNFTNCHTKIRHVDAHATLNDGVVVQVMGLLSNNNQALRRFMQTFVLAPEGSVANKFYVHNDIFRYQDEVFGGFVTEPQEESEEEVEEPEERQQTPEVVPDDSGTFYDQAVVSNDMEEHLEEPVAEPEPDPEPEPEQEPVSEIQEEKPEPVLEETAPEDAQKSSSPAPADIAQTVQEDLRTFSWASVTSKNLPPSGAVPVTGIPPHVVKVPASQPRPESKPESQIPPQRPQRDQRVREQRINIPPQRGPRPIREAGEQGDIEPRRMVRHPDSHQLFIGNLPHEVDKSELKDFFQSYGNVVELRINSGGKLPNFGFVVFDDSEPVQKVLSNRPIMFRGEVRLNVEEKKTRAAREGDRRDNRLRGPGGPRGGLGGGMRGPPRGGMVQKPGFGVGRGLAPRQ
Method: RNA Bind-n-Seq
Form: RNA
Medium: in vitro
Tested at: 200 nM
Setting: whole 134-nt RNA, ends assumed
With: 150 mM LiCl
Reference: input library
Direction: higher = stronger binding
Library: 7-deaza-guanosine replaces G
All sequences stand within: GGGAGUUCUACAGUCCGACGAUC … UGGAAUUCUCGGGUGUCAAGG
Strand | log2 enrichment
GUAAGUGUGGCAAUGUGAACUGAAGCUGAUGGGCUGAGAACAUGGACUGAGCUUGUGGUGUGCUUUGCAGGAGGACUUGAAGCAGAGUUC | 0.683
CAAGUCCUGUGCUACACAUCGUAUGUACCGAAUCGGUUUGGUUUUUUUGGUUUGGAAAGUAUUAUGUUACGCCGUUCGGAUCUGCACUUC | -1.37
UCCUGUGCUACACAUCGUAUGUACCGAAUCGGGGUUUUUGGGGUUUUUGGGGUUUGGGGAAAGUAUUAUGUUACGCCGUUCGGAUCUGCA | 0.427
UAACUUUAGAGGAGGAUCUGAUGGAUAUGGCAGUGGACGUGGAUUUGUGGAUGGCUAUAAUGGGUAUGGAGGAGGACCUGGAGGUGGCAA | 0.228
CAAAAACAACACGCACCCACACAGACACAGAGGGAAGGGGUUGGGAUGGGGACAGGGUGCACAGCAGGGCGGGGUAGGACCCCAGCCCCU | 0.588
UCAAGUCCUGUGCUACACAUCGUAUGUACCGAAUCGGGAGGGAAAAAGGGUGGGAAAGUAUUAUGUUACGCCGUUCGGAUCUGCACUUCC | -0.72
AACAGACAACACGCACCCACACAGACACAGAGGGAAGGGGUUGGGAUGGGGACAGGGUGCACAGCAGGGCGGGGUAGGACCCCAGCCCCU | 0.255
AAGUCCUGUGCUACACAUCGUAUGUACCGAAUCGGGGAAAGGGGAAAGGGGUGGGGAAAGUAUUAUGUUACGCCGUUCGGAUCUGCACUU | 0.187
UAACUUUAGAGGAGGAUCUGAUGGAUAUGGCAGUCGACGUGGAUUUGGGGAUGGCUAUAAUGGGUAUGGAGGAGGACCUGGAGGUGGCAA | -0.357
UUCAAGGAAAAACAAGAGGAGCAGGCUCGCCUCCUUGAUGAACUGGCAGGCAAGCUACAAAGCCUAGACCUUUCAGCCGCUGCCGAAAUG | -2.66
UAAAUUUAGAGGAGGAUCUGAUGGAUAUGGCAGUGGACGUGGAUUUGGGGAUGGCUAUAAUGGGUAUGGAGGAGGACCUGGAGGUGGCAA | -0.224

Block 3
Target: ABI1, truncated, D143A, DHFR fusion (Arabidopsis thaliana)
Method: DHFR PCA, deep sequencing
Medium: yeast
Setting: methotrexate growth selection, single substitutions
With: (+)-ABA 710 µM
Reference: wild-type fitted maximum
Direction: higher = stronger binding
Starting sequence: PYL1, truncated, DHFR fusion (Arabidopsis thaliana); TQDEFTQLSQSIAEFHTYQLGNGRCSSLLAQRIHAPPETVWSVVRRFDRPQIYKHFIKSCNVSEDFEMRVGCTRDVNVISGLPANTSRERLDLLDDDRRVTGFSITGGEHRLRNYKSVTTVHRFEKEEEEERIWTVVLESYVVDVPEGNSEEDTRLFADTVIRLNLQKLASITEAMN; partner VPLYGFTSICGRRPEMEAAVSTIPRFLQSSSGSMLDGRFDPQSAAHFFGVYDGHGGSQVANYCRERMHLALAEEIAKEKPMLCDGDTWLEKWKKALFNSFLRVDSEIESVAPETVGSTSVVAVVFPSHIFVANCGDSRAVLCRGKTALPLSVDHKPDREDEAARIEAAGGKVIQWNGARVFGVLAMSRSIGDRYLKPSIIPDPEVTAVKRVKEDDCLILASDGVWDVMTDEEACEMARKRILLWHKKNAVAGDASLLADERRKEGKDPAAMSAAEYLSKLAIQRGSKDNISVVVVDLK
Substitution | relative binding score [%]
R111K | 96.4
V78H | 63.2
R132E | 122
Y18Q | 97.1
E139C | 103
E151I | 100
L20M | 98.5
Y141G | -6.54

Block 4
Molecule: PhoQ, residues 284 288 289 292 302 303 TASMAF
Method: Sort-seq
Measured: YFP reporter
Medium: E. coli
Setting: PhoQ-PhoP variant library
With: 10 µM Mg2+
Reference: high Mg2+ state
Direction: higher = stronger signaling
target | fold induction
PhoP, residues 12 14 15 18 19 LHTVL (Escherichia coli, UniProt P23836) | 11.6
PhoP, residues 12 14 15 18 19 TQAML (Escherichia coli, UniProt P23836) | 18
PhoP, residues 12 14 15 18 19 NQCAL (Escherichia coli, UniProt P23836) | 12.4

Some of these lines once more (block 1):
Strand | RBNS enrichment (R)
GGGCCAAGCUAUAGAGGCAUGAUCAAUGUCUCCACCUCAUCAGACAUGGACCAUAACUCUGCUAUACCAGGCAGCCAGGUAUCUAGCAAUGUAGGGGACGUCAUGUCGUU | 0.253
CCCCCACUCUGCUGUACUGAUAGGAUUUAGUUGUGUUUUAGGACAUUGCAAAUCUUCUAGAAGUUCUCCCCCAAAUCAGGUCAAUGUGUGCCCUCCUGAGCUCCCACCCA | 0.475
UCUGUCCCCGCCAGCAACUAUGUGUAAGGUGGGCCACUCUGUCCACAUUGCCUUUGUUAUCUUUUUUUCGGAUUGAGCUCAUAACAGCCUGUGGCCCCUCACAUUCUCCA | 0.256
AUGUCAUGUACUACACACAUGUCAUAUAGUACAUACAUGUCAUGUCCAUUUAACGACUGGUCACCUGCUGGGGACCCAGGCAUCUGCCUUGUUUUCCUUUUUCUUUCAGU | 0.374
UUGGUAUGUGGCCAUAUUUAUAGAAUGCUGAACUCAAUGUGCAAGUUGUACUGUAUGCAGUUUUGUAAAUAAGUGAAAAUAAUUUGUUGUACUUUUUAUUCAAUUCUGUA | 1.12
